Measurements collected from several papers.
Each line is one published result; not all experiments were run side by side. No end group written: not given here.
B1: RGS1 (Arabidopsis thaliana, UniProt Q8H1F2); chain MASGCALHGGCPSDYVAVAISVICFFVLLSRSVLPCLIHKAPRTNSSSFWIPVIQVISSFNLLFSIMMSVNLLRFRTKHWWRYCYLWAVWIEGPLGFGLLMSCRITQAFQLYFIFVKKRLPPVKSYIFLPLVLLPWIFGAAIIHATKPLNDKCHMGLQWTFPVAGLHALYVLALIAFTRAVRHVEFRFDELRDLWKGILVSATSIVIWVTAFVLNEIHEEISWLQVASRFVLLVTGGILVVVFFSISSNQPLLSQISLKKRQNFEFQRMGQALGIPDSGLLFRKEEFRPVDPNEPLDKLLLNKRFRHSFMEFADSCYAGETLHFFEEVYEHGKIPEDDSIRRIYMARHIMEKFIVAGAEMELNLSHKTRQEILTTQDLTHTDLFKNALNEVMQLIKMNLVRDYWSSIYFIKFKEEESCHEAMHKEGYSFSSPRLSSVQGSDDPFYQEHMSKSSRCSSPG
B2: PLEKHA3 (Homo sapiens, UniProt Q9HB20); sequence looked up; chain MEGVLYKWTNYLTGWQPRWFVLDNGILSYYDSQDDVCKGSKGSIKMAVCEIKVHSADNTRMELIIPGEQHFYMKAVNAAERQRWLVALGSSKACLTDTRTKKEKEISETSESLKTKMSELRLYCDLLMQQVHTIQEFVHHDENHSSPSAENMNEASSLLSATCNTFITTLEECVKIANAKFKPEMFQLHHPDPLVSPVSPSPVQMMKRSVSHPGSCSSERSSHSIKEPVSTLHRLSQRRRRTYSDTDSCSDIPLEDPDRPVHCSKNTLNGDLASATIPEESRLMAKKQSESEDTLPSFSS
B3: FUS 141-214 (Homo sapiens, UniProt P35637); sequence looked up; chain QSYGQQQSYNPPQGYGQQNQYNSSSGGGGGGGGGGNYGQDQSSMSSGGGSGGGYGNQDQSGGGGSGGYGQQDRG

`B1 (RGS1)` — result for “GTP hydrolysis rate constant”: 0.475 min⁻¹ (GPA1 (Arabidopsis thaliana, UniProt P18064); activator, single turnover GTPase assay; nanodiscs; 250 nM).
For `TP53 R172H (Mus musculus)`, “reduction of PLA signal” read 64% (Creb1 (Mus musculus, UniProt Q01147-1); proximity ligation; PDAC; KRAS knockdown; reference: control siRNA, higher = greater loss of interaction).
With `trichosanthin V232K/N236D (Trichosanthes kirilowii)` the IC50 was 6.28 nM (ribosomal P protein C-terminal peptide residues 105-115 (Homo sapiens); protein synthesis inhibition, inhibitor; rabbit reticulocyte lysate).
For `B2 (PLEKHA3)`, “relative phosphatase activity” read 10 fold (SACM1L 1-522 (Homo sapiens, UniProt Q9NTJ5); Sac1 activity; liposomes; reference: artificial tether, higher = more activity).
For `COX6A2 (Bos taurus, UniProt P07471)`, “urea midpoint for subunit dissociation” read 3.6 M (cytochrome c oxidase eight-subunit core (Bos taurus, UniProt P00396); anion exchange chromatography, RP-HPLC, SDS-PAGE; 120 min, pH 7.2, room temperature, apparent, partly coupled to unfolding).
`EGF mature, 125I label (mouse)` has an EC50 of 2.6 nM (EGFR (Homo sapiens, UniProt P00533); receptor autophosphorylation, agonist; CHO; 2 min, 37 °C).
For `B3 (FUS 141-214)`, binding read “binds” (FUS 111-214 (Homo sapiens, UniProt P35637); hydrogel binding assay).
For `CACNA1B fragment (Oryctolagus cuniculus)`, “peak current reduction” read 8.9 % reduction (CACNA1B (Oryctolagus cuniculus, UniProt Q05152); IBa; Xenopus oocytes; not significant).
`REC104 (Saccharomyces cerevisiae, UniProt P33323)`: “molecule per partner” 1 (SPO11 (Saccharomyces cerevisiae, UniProt P23179); SEC-MALS).
Under “molecule per partner”, `SGRGK(Ac)GGKGL (histone H4 residues 1-10; acetylated K5)` is recorded as 0.93 (ATAD2 bromodomain 981-1108, Cys1057-Cys1079 disulfide (Homo sapiens, UniProt Q6PL18); ITC; peptide; pH 7.0, 5 °C, NaCl 150 mM).
Under “peroxide turnover rate k1”, `CYCS (horse, UniProt P00004)` is recorded as 1.6 s⁻¹ (CcP/MBP, two covalent hemes (Shewanella oneidensis); steady-state kinetics; oxidized, MBP-fused, with: electron donor 4 µM).
Under “normalized open probability”, `CALM1 (Homo sapiens, UniProt P0DP23)` is recorded as 78 % no CaM (RYR2 del4077-4080 (Oryctolagus cuniculus, UniProt P30957); single-channel planar bilayer; liposomes; 1 µM, with: Ca2+ 2 µM; reference: no CaM, higher = more open).
`UGT1A9 (Homo sapiens, UniProt O60656)` gave a Vmax of 0.000234 µmol/min/mg (Oc1ccc2c(c1)OC[C@H]1c3cc4c(cc3O[C@@H]21)OCO4; steady-state kinetics; pH 7.4, 37 °C).
`KIF15 Coil-1 (Homo sapiens)` gave a rupture force of 3.4 pN (tubulin alpha/beta microtubules, E-hook removed (Bos taurus); optical trap rupture assay).

For quick reference, copied from above:
Under “normalized open probability”, `CALM1 (Homo sapiens, UniProt P0DP23)` is recorded as 78 % no CaM (RYR2 del4077-4080 (Oryctolagus cuniculus, UniProt P30957); single-channel planar bilayer; liposomes; 1 µM, with: Ca2+ 2 µM; reference: no CaM, higher = more open).
